Experimental data gathered from unrelated publications.
Parts stem from different laboratories: compare values within a part only.

Sample 1
Substance: PhoQ, residues 284 288 289 292 302 303 TTCLQL
Technique: Sort-seq
Refers to: YFP reporter
Medium: E. coli
Notes: PhoQ-PhoP variant library
With: 10 µM Mg2+
Baseline: high Mg2+ state
Direction: higher = stronger signaling
Measurement: fold induction
PhoP, residues 12 14 15 18 19 NQCAL (Escherichia coli, UniProt P23836): 8.29
PhoP, residues 12 14 15 18 19 TQAML (Escherichia coli, UniProt P23836): 4.97
PhoP, residues 12 14 15 18 19 LHTVL (Escherichia coli, UniProt P23836): 3.14

Sample 2
Target: Transcriptional repressor CTCF (CTCF, Homo sapiens, UniProt P49711, residues 1-727, full length assumed)
UniProt P49711, sequence (whole entry, looked up): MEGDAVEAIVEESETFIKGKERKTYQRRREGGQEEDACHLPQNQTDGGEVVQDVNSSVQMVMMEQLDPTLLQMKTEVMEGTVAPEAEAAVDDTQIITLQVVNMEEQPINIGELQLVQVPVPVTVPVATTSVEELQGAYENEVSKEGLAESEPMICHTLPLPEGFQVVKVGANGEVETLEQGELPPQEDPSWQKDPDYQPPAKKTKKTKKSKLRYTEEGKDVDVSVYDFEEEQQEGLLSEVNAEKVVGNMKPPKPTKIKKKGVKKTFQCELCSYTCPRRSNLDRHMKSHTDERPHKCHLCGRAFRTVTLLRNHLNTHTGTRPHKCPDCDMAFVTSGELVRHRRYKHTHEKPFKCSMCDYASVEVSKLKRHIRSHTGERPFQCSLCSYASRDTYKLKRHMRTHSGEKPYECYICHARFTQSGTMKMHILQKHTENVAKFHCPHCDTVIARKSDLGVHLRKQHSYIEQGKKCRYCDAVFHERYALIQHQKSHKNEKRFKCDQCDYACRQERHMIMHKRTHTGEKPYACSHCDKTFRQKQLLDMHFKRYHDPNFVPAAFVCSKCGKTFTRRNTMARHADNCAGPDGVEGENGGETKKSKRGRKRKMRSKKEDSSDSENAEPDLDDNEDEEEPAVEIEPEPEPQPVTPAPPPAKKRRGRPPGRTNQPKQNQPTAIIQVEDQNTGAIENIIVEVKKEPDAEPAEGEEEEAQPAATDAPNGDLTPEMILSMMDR
Technique: protein-binding microarray
Molecule type: double-stranded DNA, one strand shown
Medium: in vitro
Concentration: not given
Notes: k-mer, scored over probes, only values ≥0.25
Direction: higher = stronger binding
Measurement: E-score
AAACATAA: 0.329
ATATCAAG: 0.272
GCGCGAAA: 0.333
ATTGCACC: 0.276
TAATGATA: 0.276

Sample 3
Target: Interferon regulatory factor 5, full length, phosphomimetic (IRF5, Homo sapiens, UniProt Q13568-2, residues 1-514, K96S/S451D/S453D/S456D/S462D)
Technique: protein-binding microarray
Molecule type: double-stranded DNA, one strand shown
Medium: in vitro
Concentration: 250 nM
Notes: 60-bp whole probe
With: salmon DNA 0.4 mg/ml
Baseline: random background probes
Direction: higher = stronger binding
Measurement: log fluorescence
Constant ends, left off below: GCCTAGCAC … GTCTTGATTCGCTTGACGCTGCTG
TGCTCTTTCTACATAGATGTGTGCTAG: 2.03 z-score
GGGATTTTGTCCTCCCCTCCCGTGCTA: -0.493 z-score
TTAGATATCGGGTTTCGGTTAGTGCTA: 8.67 z-score
TTAGGTTTCGACACTGGCTTAGTGCTA: 5.59 z-score
GGGCATTTGGAAAATGAAAATGTGCTA: 0.19 z-score
GACGGTATCCTTTTCCTCACGTGCTAG: 0.682 z-score

Sample 4
Target: Ras GTPase-activating protein-binding protein 1, full length (G3BP1, Homo sapiens, UniProt Q13283)
UniProt Q13283, sequence (whole entry, looked up): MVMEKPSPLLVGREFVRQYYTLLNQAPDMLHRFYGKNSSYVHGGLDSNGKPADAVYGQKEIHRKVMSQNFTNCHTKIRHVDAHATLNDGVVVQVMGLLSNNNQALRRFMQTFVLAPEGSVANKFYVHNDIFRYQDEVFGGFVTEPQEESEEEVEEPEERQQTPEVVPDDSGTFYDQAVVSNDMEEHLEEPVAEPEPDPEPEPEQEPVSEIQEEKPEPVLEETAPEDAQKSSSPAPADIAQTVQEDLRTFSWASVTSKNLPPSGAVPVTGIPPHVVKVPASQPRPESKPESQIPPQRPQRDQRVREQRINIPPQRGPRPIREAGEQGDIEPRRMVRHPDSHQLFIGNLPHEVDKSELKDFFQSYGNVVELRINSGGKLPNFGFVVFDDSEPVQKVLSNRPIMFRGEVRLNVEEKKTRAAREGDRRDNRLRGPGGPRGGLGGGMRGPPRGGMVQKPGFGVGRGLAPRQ
Technique: RNA Bind-n-Seq
Molecule type: RNA
Medium: in vitro
Concentration: 200 nM
Notes: whole 134-nt RNA, ends assumed
With: 150 mM LiCl
Baseline: input library
Direction: higher = stronger binding
Measurement: log2 enrichment
Each molecule: 7-deaza-guanosine replaces G
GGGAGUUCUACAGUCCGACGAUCAGUCCUGUGCUACACAUCGUAUGUACCGAAUCAAAUUUUUAAACCCCCAAACCCAAAAAAGUAUUAUGUUACGCCGUUCGGAUCUGCACUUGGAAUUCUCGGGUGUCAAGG: 1.33
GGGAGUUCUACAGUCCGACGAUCUCAAGUCCUGUGCUACACAUCGUAUGUACCGAAUCGGGUGGGAGGGAAAAAGGGAAAGUAUUAUGUUACGCCGUUCGGAUCUGCACUUCCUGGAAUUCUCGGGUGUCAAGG: -0.232
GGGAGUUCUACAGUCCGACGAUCCACAGACAACACGCACCCACACAGACACAGAGGGAAGGGGUUGGGAUGGGGACAGGGUGCACAGCAGGGCGAAAUAGGACCCCAGCCCCUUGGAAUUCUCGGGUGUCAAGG: 1.18
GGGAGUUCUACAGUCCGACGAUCCAAGUCCUGUGCUACACAUCGUAUGUACCGAAUCGGGAAAAAGGGUUUGGGAGGGAAAGUAUUAUGUUACGCCGUUCGGAUCUGCACUUCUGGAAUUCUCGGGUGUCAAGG: -0.659
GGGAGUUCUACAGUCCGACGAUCGUCCUGUGCUACACAUCGUAUGUACCGAAUCGGGUUUGGGUUUUUGGGUUUUUUUGGGAAAGUAUUAUGUUACGCCGUUCGGAUCUGCACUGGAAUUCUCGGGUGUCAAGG: -0.423
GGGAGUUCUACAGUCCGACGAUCAGGAAAAUGUUUAUAGGAGGCCUUAGCUGGGACACUACAAAGAAAGAUCUGAAGGACUACUUUUCCAAAUUUGGUGAAGUUGUAGACUGCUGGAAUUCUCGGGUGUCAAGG: -1.51
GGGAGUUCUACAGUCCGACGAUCAAGUCCUGUGCUACACAUCGUAUGUACCGAAUCGGGUUUUUUUGGGUGGGAAAGGGAAAGUAUUAUGUUACGCCGUUCGGAUCUGCACUUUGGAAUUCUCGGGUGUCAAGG: -0.291

For quick reference, copied from above (sample 4):
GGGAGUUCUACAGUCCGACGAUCUCAAGUCCUGUGCUACACAUCGUAUGUACCGAAUCGGGUGGGAGGGAAAAAGGGAAAGUAUUAUGUUACGCCGUUCGGAUCUGCACUUCCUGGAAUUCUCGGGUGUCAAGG: -0.232
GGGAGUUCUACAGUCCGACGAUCAAGUCCUGUGCUACACAUCGUAUGUACCGAAUCGGGUUUUUUUGGGUGGGAAAGGGAAAGUAUUAUGUUACGCCGUUCGGAUCUGCACUUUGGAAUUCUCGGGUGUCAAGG: -0.291
